Results from different studies.
Every numbered part comes from another study and shows a few of its results, in no order. Positions count from the first letter of the parent shown.

Sample 1
Target: CCND1, cyclin fold, Cln2 fusion (human)
Method: yeast growth competition, sequencing
Medium: yeast
Setting: strong parent motif
Reference: not given
Reading: higher = stronger binding
Parent: PKN2 docking peptide (human); VSAVRKLDFSDTM; partner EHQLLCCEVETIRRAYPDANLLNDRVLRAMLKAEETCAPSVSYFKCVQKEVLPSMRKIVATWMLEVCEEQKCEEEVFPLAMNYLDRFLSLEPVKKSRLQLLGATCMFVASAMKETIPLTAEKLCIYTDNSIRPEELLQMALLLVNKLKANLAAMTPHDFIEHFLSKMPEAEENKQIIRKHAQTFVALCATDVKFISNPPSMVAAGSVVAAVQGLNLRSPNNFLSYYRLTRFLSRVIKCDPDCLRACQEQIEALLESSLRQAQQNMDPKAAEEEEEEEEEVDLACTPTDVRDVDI
`K6I`: “normalised enrichment score” 3.56.
`T12W`: “normalised enrichment score” 5.77.
`V4S`: “normalised enrichment score” 3.55.
Under “normalised enrichment score”, `A3Y` is recorded as 0.193.
`S10K` — result for “normalised enrichment score”: 3.92.
`S10A`: “normalised enrichment score” 5.11.
`F9W`: “normalised enrichment score” 2.04.
For `F9I`, “normalised enrichment score” read 0.385.
`L7K`: “normalised enrichment score” 0.23.
`K6P`: “normalised enrichment score” 1.28.
`L7D`: “normalised enrichment score” -0.108.
`S2I` — result for “normalised enrichment score”: 3.09.
Under “normalised enrichment score”, `S2H` is recorded as 4.33.
`L7N`: “normalised enrichment score” -0.127.
Under “normalised enrichment score”, `F9E` is recorded as 0.411.
Under “normalised enrichment score”, `S2F` is recorded as 2.71.
For `L7T`, “normalised enrichment score” read 0.203.
`S10T`: “normalised enrichment score” 4.86.
Under “normalised enrichment score”, `A3G` is recorded as 1.27.
`L7M` — result for “normalised enrichment score”: 0.78.
Under “normalised enrichment score”, `D8T` is recorded as 4.03.
Under “normalised enrichment score”, `T12Q` is recorded as 5.11.
Under “normalised enrichment score”, `A3R` is recorded as 0.528.
`D8R`: “normalised enrichment score” 0.844.
`R5G` — result for “normalised enrichment score”: 0.482.

Sample 2
Target: Sal-like protein 4, full length isoform A (SALL4, Homo sapiens, UniProt Q9UJQ4, residues 1-1053)
UniProt Q9UJQ4, sequence (whole entry, looked up): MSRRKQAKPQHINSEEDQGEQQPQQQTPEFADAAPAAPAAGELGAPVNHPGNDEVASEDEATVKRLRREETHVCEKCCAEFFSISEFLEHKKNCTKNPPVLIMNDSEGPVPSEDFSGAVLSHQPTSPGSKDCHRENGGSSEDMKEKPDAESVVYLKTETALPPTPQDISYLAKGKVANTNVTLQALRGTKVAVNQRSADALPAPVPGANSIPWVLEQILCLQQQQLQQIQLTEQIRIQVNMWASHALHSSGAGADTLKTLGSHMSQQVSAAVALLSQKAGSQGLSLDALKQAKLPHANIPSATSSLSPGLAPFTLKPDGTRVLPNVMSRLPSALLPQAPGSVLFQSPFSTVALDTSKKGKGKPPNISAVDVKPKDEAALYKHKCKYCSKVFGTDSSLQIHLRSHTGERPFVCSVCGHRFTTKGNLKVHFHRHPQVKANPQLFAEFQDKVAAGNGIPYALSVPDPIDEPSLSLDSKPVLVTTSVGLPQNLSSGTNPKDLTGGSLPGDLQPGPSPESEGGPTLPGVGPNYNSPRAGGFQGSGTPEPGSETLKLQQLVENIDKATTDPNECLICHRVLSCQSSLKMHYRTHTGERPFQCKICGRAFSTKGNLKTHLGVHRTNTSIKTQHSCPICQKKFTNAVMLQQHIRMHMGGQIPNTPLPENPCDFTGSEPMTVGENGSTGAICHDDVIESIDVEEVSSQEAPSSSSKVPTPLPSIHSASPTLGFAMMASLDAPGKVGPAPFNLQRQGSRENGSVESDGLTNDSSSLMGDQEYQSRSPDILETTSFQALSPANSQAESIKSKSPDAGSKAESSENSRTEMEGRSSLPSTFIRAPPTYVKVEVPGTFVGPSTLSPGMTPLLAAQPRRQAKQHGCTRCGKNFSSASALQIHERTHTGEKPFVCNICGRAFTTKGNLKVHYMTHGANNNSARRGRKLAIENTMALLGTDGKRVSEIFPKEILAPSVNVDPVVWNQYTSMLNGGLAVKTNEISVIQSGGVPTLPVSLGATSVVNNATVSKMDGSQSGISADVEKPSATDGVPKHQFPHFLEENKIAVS
Method: universal PBM
Form: double-stranded DNA, one strand shown
Medium: in vitro
Concentration: 600 nM
Setting: 8-mer, flanks averaged, mean of replicates
Reading: higher = stronger binding
The E-score of `CACCATGG` is reported as -0.217.
With `CTATCGCC` the E-score was -0.135.
The E-score of `TATTTGCA` is reported as 0.279.
For `CGGTCGCC`, the E-score was -0.282.
For `AATACTAT`, the E-score was 0.313.
`GCGGCCTA` has an E-score of -0.29.
With `ATAAACCG` the E-score was 0.0674.
`CGCTAGGC` has an E-score of -0.256.
`AACCCCTC` has an E-score of -0.236.
With `ACCCTCAT` the E-score was -0.094.
`AATGCGGC` gave an E-score of -0.234.
The E-score of `CACTCCAC` is reported as -0.0715.
For `AGATCGCT`, the E-score was -0.107.
For `CAGAGGAA`, the E-score was -0.104.
With `GAGTCCAA` the E-score was -0.149.
With `ACTCTTTA` the E-score was 0.103.
The E-score of `GTACGTTA` is reported as 0.213.
For `CAAAACTA`, the E-score was 0.263.
For `TCGTGGAA`, the E-score was 0.144.
`AGAAGGTG` has an E-score of 0.0973.
For `GGTTTGGA`, the E-score was -0.0165.
For `GTTCGATA`, the E-score was 0.151.
For `GGGGCGAA`, the E-score was -0.235.

Sample 3
Target: RNA binding protein fox-1 homolog 2, RRM domain, GST-SBP tag (RBFOX2, Homo sapiens, UniProt O43251-10, residues 100-194)
Method: RNA Bind-n-Seq
Form: RNA
Medium: in vitro
Concentration: 365 nM
Setting: natural RNA segment, single round, ends assumed
Reference: no-protein control
Reading: higher = stronger binding
Shared flanks, not repeated: GGGAGUUCUACAGUCCGACGAUC … UGGAAUUCUCGGGUGCCAA
`AUUUCACCUACUAUUUCUGAAUAUAUUUUGCAAAUUGAAUUGGAAUAGGAAUUGAUAAUAGCAGUCUUAAACAUUAGUAGUGGGAUUUGGCUAUGGUCCAGACUGUGCUC` — result for “RBNS enrichment (R)”: 0.407.
For `AGCCAGGCGCCUGCUCAUGUUGAAGUGCGCUGUUCACACCCGCUCCGGAGAGCACCCCAGCAGCAUCCAGAAGCAGCUGCAGUGUUGCUGCCACCACCCUCCUGUCUGCC`, “RBNS enrichment (R)” read 0.398.
`UAUGUCUAUUAUCUGGACAUGAUUUUGCUAUGCAGUUGUGAUAAUAAAAAUUCUAAUUCCUCAGGUUUGGCCUUUUAAGUUAUGGCUGAAGACCUUUAAUGAUACUUAUG`: “RBNS enrichment (R)” 0.756.
For `AUGUGUGUAUUGUAUAUGUGCACCAGCAUCAAACAUUGUGUAUCUGGAAGGAAAGCAGCAUGUUCCAGUUCUAAAAUGCAGUUACCAGACCCAUCACUUUAAAUCCUUAA`, “RBNS enrichment (R)” read 6.93.
For `CGGCUUAAGCCAGCCCCCGACUGGCCUGGCCACACUGCUCUCCAGUAGCACAGAUGUCUGCUCCUCCUCUUGAACUUGGGUGGGAAACCCCACCCAAAAGCCCCCUUUGU`, “RBNS enrichment (R)” read 0.408.
For `AACAGGUAGCUCUCCAUAAGGAAAUUAUCAUGAGUGUGUUCUCCCAUCAGUGCACUUCUCCCAGGGGUGCUCACUGAAGCUGGUCCACGUCUAUAAACAGGUGACACUGG`, “RBNS enrichment (R)” read 0.414.
Under “RBNS enrichment (R)”, `UACCUAAGGGGUUACUUGUUUAAUGGGAUGGCAUUGACUUUUUGAAAAUCAAGUGGACUGAGUCAUUGAUAAAACAUUUCUAAGAGUGGGGCUAGAGAACAUACUUUACA` is recorded as 0.88.
`GAUGGGGCCCUUCCUCCGGGUGACCCCACAGGGCCUUUCCAAGCCCCCAUUUGAGCUGCUCCUUCCUGUGUGUGCUCUGGGCCCUGCCUCGGCCUCCUGCGCCAAUACUG` — result for “RBNS enrichment (R)”: 0.418.

Sample 4
Target: RING finger protein unkempt homolog, zinc fingers 1-6, GST-SBP tag (UNK, Homo sapiens, UniProt Q9C0B0, residues 30-357)
Method: RNA Bind-n-Seq
Form: RNA
Medium: in vitro
Concentration: not given
Setting: RNA with constant flanks, human-mouse chimeric sites, ends assumed
Reference: input RNA pool
Reading: higher = stronger binding
Shared flanks, not repeated: GGGAGUUCUACAGUCCGACGAUC … CAACAGAGGAUUGAGCAUCA
Residues (chain): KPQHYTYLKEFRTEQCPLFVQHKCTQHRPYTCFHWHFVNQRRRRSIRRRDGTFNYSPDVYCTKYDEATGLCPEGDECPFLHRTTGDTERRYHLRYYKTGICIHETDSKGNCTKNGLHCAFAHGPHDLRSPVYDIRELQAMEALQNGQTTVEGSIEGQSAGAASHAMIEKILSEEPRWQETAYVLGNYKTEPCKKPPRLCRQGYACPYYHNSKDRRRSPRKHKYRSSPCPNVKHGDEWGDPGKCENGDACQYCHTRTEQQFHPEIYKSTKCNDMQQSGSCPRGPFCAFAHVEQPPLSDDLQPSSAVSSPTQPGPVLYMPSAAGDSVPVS
For `UGUGAACUGUCUCUUGAGAUCUAAAAACAAGAUGACUUUUCCUGGCACAUAUUCCAAAGCAUAGACUUUGUUACCUGCUGCUUAUUGUCUAAUUUACAGGGAUAUUUAAUUUUGUCAGGU`, the bound/input enrichment was 0.205 ratio.
With `UUUGUUUGUAACUUAUCUGUAAAAGGUGUUUCUCCCUUACUGUCAAAAAAUAUGCAUGUAUAGUAAUUAGGACUUCAUUCCUCCAUGUUUUCUUCCCUUAUCUUACUGUCAUUGUCCUUA` the bound/input enrichment was 0.848 ratio.
For `GACAGUGAAGAAGAGAUUAGAGAAGCAUUCCGUGUGUUUGAUAAGGAUGGCAAUGGCUAUAUUAGUGCUGCAGAACUUCGCCAUGUGAUGACAAACCUUGGAGAGAAGUUAACAGAUGAA`, the bound/input enrichment was 0.691 ratio.
With `GUAUACGGUUAUCGAGGAAAGGACUGUAGAGCGAAUGUAUACCUGCUUCCCACAGGGGAGAUAGUUUAUUUUAUCGCCUCAGUGGUAGUACUAUUUAAUUAUGAGGAGAGAACUCAGCGA` the bound/input enrichment was 3.4 ratio.
`AACUUCGUGCAUCGGUUUCCCUUUGUAGCUGUUUCAAUUGGCUUCCUUGUGAAUAAAAAGAUAGAAUUUGGAGUUGUGUACAGCUGUGUGGAAGAUAAGAUGUACACCGGCAGGAAAGGG` has a bound/input enrichment of 1.34 ratio.
The bound/input enrichment of `CGCUGGCCCAAGCUGAUGGACUCUGAUGGCCUCCAUCUCUCAGGCACGUGUGCCUUCUCUUAGUCCCUUCUGGGUUGUCACAAAGCUUCUCAGUACUGUGGUUUGAAAGCACCAGCUUUG` is reported as 0.161 ratio.
`UGACAAGGGCACUGCAGAGCCAUGCCUUUCUUGGACAUACAGAAAAAGCUGGGCAUCAGCCUGGACCGGCACUUUAUGUUCCUAAGCGGUGAACAGCCCUAUAAGAACGCCGCUCGGUGC` has a bound/input enrichment of 0.0818 ratio.
`AGAUUCCCCCUCCUGAGACCUCCUCCGAAAUUGGCAUCUCUUAUAGAUGCCUCAUCCCCUGUUAGCGUUUUAGUUUGGACCACCCAGCCUUGGACAAUUCCCGCCAACCAGGCAAUUUGC` has a bound/input enrichment of 1.33 ratio.

Repeated from above (sample 2):
`GCGGCCTA` has an E-score of -0.29.
With `ATAAACCG` the E-score was 0.0674.
`CGCTAGGC` has an E-score of -0.256.
`AACCCCTC` has an E-score of -0.236.
With `ACCCTCAT` the E-score was -0.094.
`AATGCGGC` gave an E-score of -0.234.
The E-score of `CACTCCAC` is reported as -0.0715.
For `AGATCGCT`, the E-score was -0.107.
For `CAGAGGAA`, the E-score was -0.104.
With `GAGTCCAA` the E-score was -0.149.
With `ACTCTTTA` the E-score was 0.103.
